Published values of several laboratories.
Every numbered part comes from another study and shows a few of its results, in no order. Changes are numbered by the printed parent chain.

Study 1 — technique: protein-binding microarray; form: double-stranded DNA, one strand shown; matrix: in vitro; concentration: 940 nM top; notes: 60-bp whole probe; with: salmon DNA 0.4 mg/ml; reference: random background probes; direction: higher = stronger binding; all sequences stand within: GCCTAGCAC … GTCTTGATTCGCTTGACGCTGCTG
Target: Interferon regulatory factor 5, full length, phosphomimetic (IRF5, Homo sapiens, UniProt Q13568-2, residues 1-514, S451D/S453D/S456D/S462D)
| Oligonucleotide | fitted relative affinity |
| --- | --- |
| GACAAACTGGGGTTTCGAGACGTGCTA | 1.98 z-score |
| TTACGACTGGACACTGGGTTAGTGCTA | -0.0809 z-score |
| CCTGGCTTCATGTTGCTCTCCGTGCTA | -0.356 z-score |
| GACGGACTAGGGTATCGGGACGTGCTA | -0.0231 z-score |
| TTAGGACTGGACAATGGGTTAGTGCTA | -0.486 z-score |
| TTAGGACTGGGACTGGGTTGGTGCTAG | -0.203 z-score |
| GACGGTTTGGACTTTCGGGACGTGCTA | 0.523 z-score |
| TTAGATTTCGGTCTCGGTTAGTGCTAG | 4.97 z-score |
| TCAATGATTTTTTTCATACTGTGCTAG | 0.497 z-score |
| TCATATACCCATGTAGAACTGTGCTAG | 0.15 z-score |
| TCATTTTTCTGAACCATACTGTGCTAG | 0.638 z-score |
| GCGCCTGTAGCCCCTCCAGGGTGCTAG | -0.569 z-score |
| GACGGACAGCTACTGCTGACGTGCTAG | -0.834 z-score |
| GACGGCCTGGACTTTCGGGACGTGCTA | 0.00243 z-score |
| TTTGGTTTCGGTCTCGGTTAGTGCTAG | 17.9 z-score |

Study 2 — target: CCND1, cyclin fold, Cln2 fusion (human); technique: yeast growth competition, sequencing; matrix: yeast; notes: weak parent motif; reference: not given; direction: higher = stronger binding
Starting sequence: DTL docking peptide (human); PSSMRKICTYFHR
| Variant | normalised enrichment score |
| --- | --- |
| Y10A | 0.886 |
| R5A | 0.506 |
| S3A | 0.618 |
| F11A | 0.0405 |
| P1A | 0.477 |
| C8A | 0.497 |

Study 3 — technique: protein binding microarray; form: double-stranded DNA, one strand shown; matrix: in vitro; concentration: not given; reference: not given; direction: higher = stronger binding
Target: Histone acetyltransferase KAT6A, winged helix 2, GST fusion (KAT6A, Homo sapiens, UniProt Q92794, residues 85-181)
Notes: 8-mer, flanks averaged, mean of 2 arrays, mostly near background
Residues (chain): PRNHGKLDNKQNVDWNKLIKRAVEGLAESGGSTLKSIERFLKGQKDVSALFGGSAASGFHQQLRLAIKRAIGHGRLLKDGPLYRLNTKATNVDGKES
| Oligonucleotide | E-score |
| --- | --- |
| ACTGCGTG | 0.1 |
| ATTCGTAG | 0.0808 |
| AATCTGAT | 0.103 |
| AGCTAGAT | -0.0154 |
| CGAGCCCA | 0.123 |
| GACCAGGA | -0.0563 |
| CCGCAAGG | 0.123 |
| AGCCAGCC | -0.154 |
| TCCCATAA | -0.00223 |
| CCGAAGAA | 0.0731 |
| CTAATGTA | -0.071 |
| CAATGTAC | -0.201 |
| TATGGAGA | -0.123 |
| ATGGAGAG | -0.0922 |
| CCGACAAA | 0.186 |
| ATACAGCC | -0.142 |
| CTGCGACC | 0.0392 |

Study 4 — technique: competition protein-binding microarray; form: double-stranded DNA, one strand shown; matrix: in vitro; concentration: 2 µM; with: Pho4 competitor, 0.05 µM; direction: higher = stronger binding
Target: Centromere-binding protein 1, full length, His-tagged (CBF1, Saccharomyces cerevisiae, UniProt P17106, residues 1-351)
Chain of UniProt P17106 (whole entry, looked up): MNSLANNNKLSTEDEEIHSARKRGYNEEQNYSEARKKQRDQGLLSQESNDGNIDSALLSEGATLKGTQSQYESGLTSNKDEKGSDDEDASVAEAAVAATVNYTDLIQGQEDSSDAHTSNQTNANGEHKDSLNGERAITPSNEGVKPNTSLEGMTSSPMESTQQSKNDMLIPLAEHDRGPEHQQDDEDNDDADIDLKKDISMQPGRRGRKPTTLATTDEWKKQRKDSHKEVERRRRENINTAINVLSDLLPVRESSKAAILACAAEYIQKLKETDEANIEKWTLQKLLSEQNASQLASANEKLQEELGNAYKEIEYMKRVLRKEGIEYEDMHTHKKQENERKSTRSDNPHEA
Notes: whole 60-bp probe, lowest competitor level
| Oligonucleotide | fluorescence intensity [a.u.] |
| --- | --- |
| ACTTGGTTAAAGACTCACGTGTAGTTTACGGTGGGGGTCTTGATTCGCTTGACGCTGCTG | 1900 |
| CGTCCTAGTGATTGTCTAGTGGGTGCCATGAGGAAGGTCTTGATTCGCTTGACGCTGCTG | 82.2 |
| CAGATCTTATAAGGGTTCGTGATGGTCCTGAATCGAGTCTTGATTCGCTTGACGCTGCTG | 68.9 |
| CTTCTGTAAATTTGACATGTGGGTGGACGCGCCCCGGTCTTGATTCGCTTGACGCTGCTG | 87.2 |
| CCATCAATACTTTTATTCATGACAAGATGCATAGGTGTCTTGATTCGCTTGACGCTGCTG | 96.6 |
| ACATTATGCATAGCTTACCTGATCCAAAAGTATGTAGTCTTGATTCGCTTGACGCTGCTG | 76.5 |
| GTTTAGTTTTCCAATCACGATACTGTTTGGCCATACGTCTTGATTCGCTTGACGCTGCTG | 186 |
| AAAGCGGTAATTTGGTCAGTGGGTGCAGATATCTATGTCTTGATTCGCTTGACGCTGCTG | 81.7 |
| CTTTCCCGATCTTGGGGTGTGGGTGTAGCACATTTGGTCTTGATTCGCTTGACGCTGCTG | 57.4 |
| CTTTCCCGATCTTGTCGGGTGGGTGTAGCACATTTGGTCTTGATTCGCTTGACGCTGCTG | 61.3 |
| GCAAGTCAAGAGGTCTCCGTGATGGCTAGCCACCTCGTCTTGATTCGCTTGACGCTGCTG | 55.6 |
| CTAACGAAGGTTTGTCACAAAACTTACAAGCCAAGTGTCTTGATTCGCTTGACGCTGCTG | 77.4 |
| CCGCGAGTTCGTAGGCACGTTAGTTGGTTTCGACGAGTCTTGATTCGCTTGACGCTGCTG | 71.1 |
| AGTAAAAGAGAAAAACACGTGTGGAGAACTTTTCATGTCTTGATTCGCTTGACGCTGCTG | 864 |
| GCGCTTGTCGCTCGGCACGATGCCAGTGCGGAGTTTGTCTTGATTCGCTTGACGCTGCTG | 70 |
| AAATTACTAAGTTGGCATGTGGGTGACGCCGTATGAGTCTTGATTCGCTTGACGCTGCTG | 95.4 |
| TGTTTCACCTAAGCAAACGTGTGGACCACAACCAAAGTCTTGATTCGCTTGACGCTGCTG | 76.6 |
| TGTTTCTTCTGAAAGCACGTGTGAAAAGTTTTCCTGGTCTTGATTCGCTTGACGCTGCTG | 1950 |

Study 5 — technique: RNA Bind-n-Seq; form: RNA; matrix: in vitro; concentration: 365 nM; reference: no-protein control; direction: higher = stronger binding
Target: RNA binding protein fox-1 homolog 2, RRM domain, GST-SBP tag (RBFOX2, Homo sapiens, UniProt O43251-10, residues 100-194)
Notes: natural RNA segment, single round, ends assumed
Residues (chain): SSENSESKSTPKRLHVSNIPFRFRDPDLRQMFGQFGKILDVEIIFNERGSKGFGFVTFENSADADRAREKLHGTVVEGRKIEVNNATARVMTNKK
| Oligonucleotide | RBNS enrichment (R) |
| --- | --- |
| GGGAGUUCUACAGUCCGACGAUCUAGCCCAGAAAAUCCACACCUUUUGUCCUUUUUAUGUUUUAAUUUGAAUAAUCAUGUGCUUAGUCCCUUGGAUUACUGCCACAUCAGUUUAACACGAUAUCAGCACAUUCUGGAAUUCUCGGGUGCCAA | 0.326 |
| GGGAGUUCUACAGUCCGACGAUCAGUUUCCUGAAGGAUGGAGGGAAUCUUUGUAAACAGAGAUCCACUUGCCAGGAUAAAAAUGUGGCCACCGCUAGAUUUCUCUUACCUACCCGUUGCAACUGGUCCCAGACUGGAAUUCUCGGGUGCCAA | 0.469 |
| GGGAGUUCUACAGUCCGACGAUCAGGGAUUCCGAUAUGUCAGGACCUAAAUGGCCUAAGCACCUGUCAAAUUAAAAUUCCAAAAUUCAUUGAAAUCCUAAAGCCUUGAUAUUAUAUUCUUUAUAAGGCGUGUGUGGAAUUCUCGGGUGCCAA | 0.408 |
| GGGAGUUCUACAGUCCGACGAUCGAUUCCAGCACUGAGCCGUGGGCCGGUCAUGAGCCACGAUAAAAAAUGCCAGUUUGGCAAACUCAGCACUCCUGUUCCCUGCUCAGGUAUAUGCGAUCUCUACCGAGAAGUGGAAUUCUCGGGUGCCAA | 0.735 |
| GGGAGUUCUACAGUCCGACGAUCGUGUUCAUGAUAGUGUAUAUUUUACUACUUUUUGAAUGUUAAUUUUAAAAUAGAAGAUGUCCCACUUGCCAUUAAAUAUAGAAGCCAACUUUUUACCUUUUGAAAUAUGGUGGAAUUCUCGGGUGCCAA | 0.488 |
| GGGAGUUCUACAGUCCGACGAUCCUUUUAGUCUUGUGCUGACUUUCUCCUGUCCUCUUCCAGUUUAGAAUAAGACAGGGGAGAAAAAGGCUUUUCGAGUGUGGGACAAGGUCUGAUGUCAGUGAACGGAACUGUGGAAUUCUCGGGUGCCAA | 0.276 |
| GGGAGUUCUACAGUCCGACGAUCCCACUCAGCUCACCUCUCCCUCCACCUCCUCUCCACCUGCUGGUGAGAGGUGCAAAGAGGCAGAUCUUUGCUGCCAGCCACUUCAUCCCCUCCCAGAUGUUGGACCAACAUGGAAUUCUCGGGUGCCAA | 0.41 |
| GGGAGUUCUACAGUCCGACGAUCUCACUCCUAGGAGAGCCAACCUCGGCUUGUGGGCUGGUGCCCCACAGCUACCUGAGACGGGCAUCGCAGGAGUCUCUGCCACCCACUCAGGAUUGGGAAUUGUCUUUAGUUGGAAUUCUCGGGUGCCAA | 0.26 |
| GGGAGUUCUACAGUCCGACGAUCAUGAUUGCUUAUUUAUGUGUAACAAAUCCCACACAAUCUCAUGGCAACUUCCUUAAUUCCUCCUGGUCAUAUAAUAUAUUUCCAUAGUAUCGUAUACUAUUAUGGAGUAUUGGAAUUCUCGGGUGCCAA | 0.534 |
| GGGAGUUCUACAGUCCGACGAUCAAAUAUGCAAGCAUAUCACAAAUGUUCCUUGUCCUUUCAAAGUGCAUUUGUUCAUCAAGAUCAAUAGAAUCUUACCAGUGGGUAGGAAAGGAUCAUAUAAAAUAUGAAGAUGGAAUUCUCGGGUGCCAA | 0.37 |
| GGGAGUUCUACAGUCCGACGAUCGCCCUAGGUUACAUUUUUGGUGAUGAUCCUCUCAGAACUUUUGUAAUUUUAUUUUAAAAUGUGUAUAUAUCAGGCUUAAUAAAGAUACUCUUUUAAGCUAUACACCUAGAUGGAAUUCUCGGGUGCCAA | 0.71 |
| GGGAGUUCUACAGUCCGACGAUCUACCGAUGCUUAAUUUACAUUUUUGGAGUUGAAUAUUAUUCCGGUGCCUCCACCACCCCCAGCAGAAAAAAUAAGAUACUGAAAUAAGUUGAGUCAUUUCGCAAACAUUUUGGAAUUCUCGGGUGCCAA | 0.424 |

A few entries again (study 1):
| Oligonucleotide | fitted relative affinity |
| --- | --- |
| TTAGGACTGGGACTGGGTTGGTGCTAG | -0.203 z-score |
| TCATTTTTCTGAACCATACTGTGCTAG | 0.638 z-score |
| TTACGACTGGACACTGGGTTAGTGCTA | -0.0809 z-score |
| GACGGACTAGGGTATCGGGACGTGCTA | -0.0231 z-score |
| TCAATGATTTTTTTCATACTGTGCTAG | 0.497 z-score |
| CCTGGCTTCATGTTGCTCTCCGTGCTA | -0.356 z-score |
| GACGGTTTGGACTTTCGGGACGTGCTA | 0.523 z-score |
